# Measurements gathered from unrelated publications.
# Every numbered part comes from another study and shows a few of its results, in no order. Changes are numbered by the printed parent chain.

# Study 1
# Target: HLF, bZIP domain (human)
# Method: DHFR protein complementation
# Sample: yeast
# Setting: single substitutions, most at no-binding floor
# Relative to: wild-type JUN-FOS pair
# Direction: higher = stronger binding
# Starting sequence: JUN, bZIP domain (human); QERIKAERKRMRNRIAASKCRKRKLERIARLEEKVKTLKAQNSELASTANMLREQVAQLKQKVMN; partner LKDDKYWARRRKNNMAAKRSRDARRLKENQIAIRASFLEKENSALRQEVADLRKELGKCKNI
Change,binding fitness [natural log]
Q58P,-1.5
K39C,-1.3
A29K,-1.47
A57H,-1.19
L38N,-1.46
K36A,-1.4
R30T,-1.47
V35C,-1.33
M51F,-1.37
A29R,-1.36
S47C,-1.4
S47M,-1.31
A57G,-1.45
E54L,-1.5
M51G,-1.45
K36M,-1.27

# Study 2
# Target: CCNB1, cyclin fold, Cln2 fusion (human)
# Method: yeast growth competition, sequencing
# Sample: yeast
# Setting: weak parent motif
# Relative to: not given
# Direction: higher = stronger binding
# Starting sequence: ORC1 docking peptide (human); PRARKRLELGNLG
Change,normalised enrichment score
L12A,1.06
G10I,0.682
K5E,0.151
R2A,0.462
A3I,-0.447
L7G,0.204
L12C,0.497
E8L,0.5
P1A,1.03
K5F,0.0852
R2P,0.997
L12P,1.02
R2F,0.147
E8V,0.9
K5T,0.0496
R2V,0.539
G10K,0.301
L9K,0.029
L7Q,0.438
L12G,0.207
L9C,1.03
L7E,0.578
K5D,0.468
R4S,0.0536

# Study 3
# Target: Prothrombin, mature alpha-thrombin (F2, Homo sapiens, UniProt P00734)
# Method: aptamer microarray, sandwich
# Form: DNA with 2'F-ANA
# Sample: in vitro
# Concentration: 200 nM
# Setting: whole 15-mer aptamer, many near background
# Added: Cy3 exosite-II aptamer, 400 nM
# Direction: higher = stronger binding
# Sequence: GGTTGGTGTGGTTGG
Modification,mean fluorescence intensity [a.u.]
2'F-ANA at 1 5 7 10 12 13 14,50.3
2'F-ANA at 2 3 5 6 7 8 11 15,85.9
2'F-ANA at 5 8 9 11 12 14 15,47
2'F-ANA at 1 3 4 5 8 9 12 13 14,44.8
2'F-ANA at 1 2 3 5 6 7 8 10 11 12 13 15,54.4
2'F-ANA at 2 4 5 8 9 10 11 12 14,48.3
2'F-ANA at 2 6 9 15,365
2'F-ANA at 1 2 4 5 7 10 11 13 14 15,44.5
2'F-ANA at 2 3 5 6 10 11 13,47.2
2'F-ANA at 3 4 7 8 9 12 15,1040
2'F-ANA at 4 6 7 9 10 15,103
2'F-ANA at 2 3 5 6 9 10 15,53.5
2'F-ANA at 1 4 5 6 10 12 13 14 15,47.6
2'F-ANA at 8 9 10 14,110
2'F-ANA at 1 3 6 7 9 10 12 13 15,107
2'F-ANA at 4 6 8 9 11 12 13,278
2'F-ANA at 6 7 8 9 10 11 12 14,255
2'F-ANA at 1 3 8 9 10 12 13 14 15,62.7
2'F-ANA at 2 3 4 9 10 12 13 15,266
2'F-ANA at 4 5 6 9 10 14 15,47.1
2'F-ANA at 2 3 5 7 8 9 12 13 14 15,58
2'F-ANA at 1 2 3 4 6 8 9 10 13,52.3

# Study 4
# Target: PABPC1L2, full length, GST fusion (mouse, UniProt A0ABA7IW68)
# Method: RNAcompete
# Form: RNA
# Sample: in vitro
# Concentration: 20 nM
# Setting: 7-mer, probes averaged, single round
# Relative to: mean of 7-mers
# Direction: higher = stronger binding
# Target sequence (chain): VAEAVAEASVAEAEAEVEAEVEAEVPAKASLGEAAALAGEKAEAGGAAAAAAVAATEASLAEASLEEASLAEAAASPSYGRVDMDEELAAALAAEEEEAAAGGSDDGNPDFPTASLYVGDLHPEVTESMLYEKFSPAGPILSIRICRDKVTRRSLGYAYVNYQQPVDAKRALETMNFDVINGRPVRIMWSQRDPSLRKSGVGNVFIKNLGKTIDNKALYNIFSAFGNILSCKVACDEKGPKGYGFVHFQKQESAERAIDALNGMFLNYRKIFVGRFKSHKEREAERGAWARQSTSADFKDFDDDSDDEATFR
Sequence,7-mer Z-score
CGAGCCA,-0.182
AGAAUGA,-0.164
CUAAUGG,-0.316
UCCCAGA,-0.202
CAGUUAC,-0.222
GAACAGU,-0.00833
GGACAAG,0.311
AGGUUUG,-0.351
CGCGCGA,-0.249
UACCGGC,-0.244
GCCCCAU,-0.505
GGCUGUC,-0.0736
UUCCCGG,-0.393
UCCACGG,-0.0554
AAUCUGA,0.0678
AGCCGUC,-0.374
CGUGGCG,-0.171
CUGGUAC,-0.171

# Study 5
# Target: ABI1, truncated, D143A, DHFR fusion (Arabidopsis thaliana)
# Method: DHFR PCA, deep sequencing
# Sample: yeast
# Setting: methotrexate growth selection, single substitutions
# Added: (+)-ABA 0 µM
# Relative to: wild-type fitted maximum
# Direction: higher = stronger binding
# Starting sequence: PYL1, truncated, DHFR fusion (Arabidopsis thaliana); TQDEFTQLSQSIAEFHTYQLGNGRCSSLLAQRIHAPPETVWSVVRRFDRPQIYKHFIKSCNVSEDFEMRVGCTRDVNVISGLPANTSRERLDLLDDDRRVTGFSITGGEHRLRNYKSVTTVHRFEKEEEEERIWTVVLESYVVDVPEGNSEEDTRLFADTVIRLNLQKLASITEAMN; partner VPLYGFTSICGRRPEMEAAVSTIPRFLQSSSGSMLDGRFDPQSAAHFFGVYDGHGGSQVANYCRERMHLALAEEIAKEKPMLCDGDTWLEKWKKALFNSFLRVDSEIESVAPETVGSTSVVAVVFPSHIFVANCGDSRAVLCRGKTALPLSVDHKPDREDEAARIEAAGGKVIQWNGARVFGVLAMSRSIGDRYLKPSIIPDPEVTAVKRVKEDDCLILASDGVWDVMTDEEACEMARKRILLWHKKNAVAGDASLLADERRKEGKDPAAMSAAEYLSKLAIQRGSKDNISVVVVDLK
Change,relative binding score [%]
E151V,41.6
L156S,2.91
H110E,46
K58W,0.436
L91A,6.12
I33S,-0.0989
D3I,14
T6Q,39.9
L20Y,15.9
P37N,-2.87
T101D,1.92
K126H,32
L20I,37.6
S117G,10.2
F15E,1.44
A84N,38.6
E67I,15.9
T173M,-0.927
R69C,16.5
T73C,14.5

# Study 6
# Target: Fragile X messenger ribonucleoprotein 1, C-terminal low-complexity region (Fmr1, Mus musculus, UniProt P35922)
# Method: RNA Bind-n-Seq
# Form: RNA
# Sample: in vitro
# Concentration: 200 nM
# Setting: whole 134-nt RNA, ends assumed
# Added: 150 mM LiCl
# Relative to: input library
# Direction: higher = stronger binding
# Library: 7-deaza-guanosine replaces G
Sequence,log2 enrichment
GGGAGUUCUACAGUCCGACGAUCGCAGGAAGUAAAAACAAAUGGAAAUGCUUCGGAUAGUGGCAGGGGUGGGGGUUGCUAAGGAAAGGGUGGGAUGGGAGUGAGUAAAGAGUUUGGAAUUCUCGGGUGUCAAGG,1.59
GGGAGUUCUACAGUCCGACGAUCUGGCCCUGGUGGCAGGCGGGGAGGAAGAGGUGGCCUCAUGGAUCGUGGUGGUCCCGGUGGAAUGUUCAGAGGUGGCCGUGGUGGAGACAGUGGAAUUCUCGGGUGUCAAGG,0.715
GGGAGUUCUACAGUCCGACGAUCUCAAGUCCUGUGCUACACAUCGUAUGUACCGAAUCGGGGAAGGGGAAGGGAAGGAAAGUAUUAUGUUACGCCGUUCGGAUCUGCACUUCCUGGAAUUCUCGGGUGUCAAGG,-1.07
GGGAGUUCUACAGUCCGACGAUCAAUGCCCACAAGGUCCCUCCCCCAUGGCUGAUUGCCAUGCAGCGAUAUGGACCACCCCCAUCGUAUCCCAACCUGAAAAUCCCUGGGCUGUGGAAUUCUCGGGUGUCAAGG,1.05
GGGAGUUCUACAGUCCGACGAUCUUCCCUGAAGAUGAGAUCCCAGAGAAGGCCUGCAGGCGCCUGCUUGAAGGGAGGCGGCAGAAGAAGACGAAGAAGCAGAAGCGUCUGCUCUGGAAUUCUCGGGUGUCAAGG,-1.3
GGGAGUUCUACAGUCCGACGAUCCCUCAAGUCCUGUGCUACACAUCGUAUGUACCGAAUCGGGGUGGGUGGGUGGAAAGUAUUAUGUUACGCCGUUCGGAUCUGCACUUCCAGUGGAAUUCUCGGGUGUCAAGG,-0.739
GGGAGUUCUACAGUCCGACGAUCACCAUGCAGGUGGGCAUCUUUGGGAAGUGGGGCAAGGGGGGGAUAGGGAGGGGGGUAACUCUUUGGGAACAGGUGGUCCCAGGUCGUUUCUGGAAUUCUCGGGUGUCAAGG,1.17
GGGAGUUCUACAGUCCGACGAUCUCCUGUGCUACACAUCGUAUGUACCGAAUCGGGUUUUUUUGGGUUUUUUUGGGAAAGGGAAAGUAUUAUGUUACGCCGUUCGGAUCUGCAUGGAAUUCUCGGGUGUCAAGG,0.0946
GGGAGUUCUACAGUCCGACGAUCACCAUGCAGGUGGGCAUCUUUGGGAAGUGGGGCAAGGGGGGAAUAGGGAGGGGGGUAACACUUUGGGAACAGGUGGUCCCAGGUCGUUUCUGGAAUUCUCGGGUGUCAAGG,1.22
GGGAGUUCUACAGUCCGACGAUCUCCUGUGCUACACAUCGUAUGUACCGAAUCGGGGAAAAAAGGGAAAAAAGGAAAAAAGGGAAAGUAUUAUGUUACGCCGUUCGGAUCUGCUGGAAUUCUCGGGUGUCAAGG,0.26
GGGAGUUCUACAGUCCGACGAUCUUAGAUGAGUGACCGAGGAGGUGGCGUUCCUUUGAGGAAAAUUGACAGACUUUUCAACUACAUGUAUUCAACUGCACCAAGACCUCGUGUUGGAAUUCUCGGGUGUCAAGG,-1.46

# For quick reference, copied from above (study 6):
Sequence,log2 enrichment
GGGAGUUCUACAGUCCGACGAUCUCCUGUGCUACACAUCGUAUGUACCGAAUCGGGUUUUUUUGGGUUUUUUUGGGAAAGGGAAAGUAUUAUGUUACGCCGUUCGGAUCUGCAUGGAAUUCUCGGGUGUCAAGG,0.0946
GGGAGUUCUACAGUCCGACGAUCUGGCCCUGGUGGCAGGCGGGGAGGAAGAGGUGGCCUCAUGGAUCGUGGUGGUCCCGGUGGAAUGUUCAGAGGUGGCCGUGGUGGAGACAGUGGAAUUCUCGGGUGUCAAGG,0.715
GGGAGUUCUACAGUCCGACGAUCUCAAGUCCUGUGCUACACAUCGUAUGUACCGAAUCGGGGAAGGGGAAGGGAAGGAAAGUAUUAUGUUACGCCGUUCGGAUCUGCACUUCCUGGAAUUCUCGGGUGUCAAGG,-1.07
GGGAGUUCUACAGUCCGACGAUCUCCUGUGCUACACAUCGUAUGUACCGAAUCGGGGAAAAAAGGGAAAAAAGGAAAAAAGGGAAAGUAUUAUGUUACGCCGUUCGGAUCUGCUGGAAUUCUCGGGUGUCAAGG,0.26
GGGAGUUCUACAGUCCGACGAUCCCUCAAGUCCUGUGCUACACAUCGUAUGUACCGAAUCGGGGUGGGUGGGUGGAAAGUAUUAUGUUACGCCGUUCGGAUCUGCACUUCCAGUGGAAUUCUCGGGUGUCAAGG,-0.739
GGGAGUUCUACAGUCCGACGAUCACCAUGCAGGUGGGCAUCUUUGGGAAGUGGGGCAAGGGGGGAAUAGGGAGGGGGGUAACACUUUGGGAACAGGUGGUCCCAGGUCGUUUCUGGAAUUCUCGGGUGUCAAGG,1.22
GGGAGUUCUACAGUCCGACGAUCGCAGGAAGUAAAAACAAAUGGAAAUGCUUCGGAUAGUGGCAGGGGUGGGGGUUGCUAAGGAAAGGGUGGGAUGGGAGUGAGUAAAGAGUUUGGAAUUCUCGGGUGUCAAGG,1.59
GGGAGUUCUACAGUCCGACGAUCUUAGAUGAGUGACCGAGGAGGUGGCGUUCCUUUGAGGAAAAUUGACAGACUUUUCAACUACAUGUAUUCAACUGCACCAAGACCUCGUGUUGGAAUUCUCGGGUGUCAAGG,-1.46
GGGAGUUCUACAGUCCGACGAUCACCAUGCAGGUGGGCAUCUUUGGGAAGUGGGGCAAGGGGGGGAUAGGGAGGGGGGUAACUCUUUGGGAACAGGUGGUCCCAGGUCGUUUCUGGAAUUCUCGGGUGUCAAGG,1.17
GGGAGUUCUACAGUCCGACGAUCAAUGCCCACAAGGUCCCUCCCCCAUGGCUGAUUGCCAUGCAGCGAUAUGGACCACCCCCAUCGUAUCCCAACCUGAAAAUCCCUGGGCUGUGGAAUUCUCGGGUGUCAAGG,1.05
